Results of several laboratories.
Each numbered part is a random draw from the data of one study; scales do not carry over between parts.

Block 1 — technique: protein binding microarray; molecule type: double-stranded DNA, one strand shown; matrix: in vitro; tested at: not given; reference: not given; reading: higher = stronger binding
Target: Histone acetyltransferase KAT6A, winged helix 2, GST fusion (KAT6A, Homo sapiens, UniProt Q92794, residues 85-181)
Setting: 8-mer, flanks averaged, mean of 2 arrays, mostly near background
Target sequence (chain): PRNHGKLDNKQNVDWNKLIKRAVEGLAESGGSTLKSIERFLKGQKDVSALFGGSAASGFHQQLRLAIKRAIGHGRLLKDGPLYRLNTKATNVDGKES
The E-score of `ACGAAGAC` is reported as -0.0151.
`GAAGCTCA` has an E-score of -0.0248.
`CGACAGAA` gave an E-score of 0.0743.
For `CTATCCCC`, the E-score was -0.0466.
`AATCAATT` gave an E-score of 0.13.
The E-score of `CAAGACGG` is reported as 0.0451.
With `TAGCAGAA` the E-score was 0.172.
The E-score of `GTGCAGCA` is reported as -0.0393.
The E-score of `GCCATTTA` is reported as -0.129.
With `TAAAGCGA` the E-score was 0.0848.
The E-score of `CGAGATCC` is reported as 0.107.
The E-score of `CATGTATC` is reported as -0.186.
With `AAATACAG` the E-score was -0.0423.
The E-score of `CTCACGAC` is reported as -0.122.
For `GACGGTGC`, the E-score was 0.0369.
`AGACGATC` has an E-score of -0.278.
The E-score of `GCGTTGGA` is reported as 0.00781.
`ATGCCAAA` gave an E-score of -0.0621.
The E-score of `AATTTCAT` is reported as 0.00305.
With `GAAGATGC` the E-score was -0.0382.
For `CCTGCTGC`, the E-score was 0.0819.
With `AGTGTGAG` the E-score was -0.0245.

Block 2 — technique: aptamer microarray, sandwich; molecule type: DNA with 2'F-ANA; matrix: in vitro; tested at: 200 nM; added: Cy3 exosite-II aptamer, 400 nM; reading: higher = stronger binding; sequence: GGTTGGTGTGGTTGG
Target: Prothrombin, mature alpha-thrombin (F2, Homo sapiens, UniProt P00734)
Setting: whole 15-mer aptamer, many near background
`2'F-ANA at 3 4 6 7 9 15`: “mean fluorescence intensity” 531 a.u.
Under “mean fluorescence intensity”, `2'F-ANA at 1 6 10 13` is recorded as 53.5 a.u.
`2'F-ANA at 1 5 9 10 11`: “mean fluorescence intensity” 87.7 a.u.
`2'F-ANA at 4 5 6 10 11 12 14 15`: “mean fluorescence intensity” 46.9 a.u.
`2'F-ANA at 1 2 4 6 7 8 9 11 14 15` — result for “mean fluorescence intensity”: 48.7 a.u.
`2'F-ANA at 1 3 6 7 9 10 11 15`: “mean fluorescence intensity” 69 a.u.
For `2'F-ANA at 2 3 4 5 6 10`, “mean fluorescence intensity” read 50.3 a.u.
For `2'F-ANA at 1 2 3 4 5 6 7 8`, “mean fluorescence intensity” read 66.8 a.u.
For `2'F-ANA at 1 3 7 8 14 15`, “mean fluorescence intensity” read 130 a.u.
Under “mean fluorescence intensity”, `2'F-ANA at 1 2 3 4 11 12` is recorded as 309 a.u.
`2'F-ANA at 1 2 5 6 7 9`: “mean fluorescence intensity” 63.6 a.u.
Under “mean fluorescence intensity”, `2'F-ANA at 3 5 9 11 12 13` is recorded as 157 a.u.
`2'F-ANA at 1 2 3 4 6 12 13` — result for “mean fluorescence intensity”: 233 a.u.
For `2'F-ANA at 1 4 8 9 10 12 14`, “mean fluorescence intensity” read 301 a.u.
`2'F-ANA at 1 3 4 5 7 8 9 11 13` — result for “mean fluorescence intensity”: 50.6 a.u.
For `2'F-ANA at 1 2 3 5 9 12 13`, “mean fluorescence intensity” read 83.9 a.u.

Block 3 — technique: RNA Bind-n-Seq; molecule type: RNA; matrix: in vitro; tested at: 20 nM; setting: 6-mer, flanks averaged, single round; added: 150 mM LiCl; reference: input library; reading: higher = stronger binding
Target: TAR DNA-binding protein 43, full length, His tag (TARDBP, Homo sapiens, UniProt Q13148, residues 1-414)
Under “6-mer enrichment (R)”, `GACGCC` is recorded as 0.955.
For `UCUAUA`, “6-mer enrichment (R)” read 0.901.
`ACCCAG` — result for “6-mer enrichment (R)”: 0.902.
For `CACCGA`, “6-mer enrichment (R)” read 0.875.
For `GUCAGG`, “6-mer enrichment (R)” read 1.03.
`GCCCCU`: “6-mer enrichment (R)” 1.22.
Under “6-mer enrichment (R)”, `CAGUCA` is recorded as 0.81.
For `CAGUGC`, “6-mer enrichment (R)” read 0.944.
`CUUUCU` — result for “6-mer enrichment (R)”: 1.02.
`UCAUGA`: “6-mer enrichment (R)” 0.837.
`CAGCGU`: “6-mer enrichment (R)” 0.975.
`GCCACC` — result for “6-mer enrichment (R)”: 1.02.
`GAAUAG` — result for “6-mer enrichment (R)”: 0.973.
Under “6-mer enrichment (R)”, `CAUACU` is recorded as 0.85.
`AGCAAA`: “6-mer enrichment (R)” 0.847.
For `AAUAAA`, “6-mer enrichment (R)” read 1.08.
`UGAAUU`: “6-mer enrichment (R)” 0.957.
`GCGUUG`: “6-mer enrichment (R)” 1.11.
`AGGACU`: “6-mer enrichment (R)” 0.981.
For `AGGAAC`, “6-mer enrichment (R)” read 0.863.
`CUGGAC`: “6-mer enrichment (R)” 0.904.
`GGAUUA`: “6-mer enrichment (R)” 0.908.
`GGAUGG` — result for “6-mer enrichment (R)”: 1.27.
For `GUGACA`, “6-mer enrichment (R)” read 0.972.
`CCCCCU` — result for “6-mer enrichment (R)”: 1.42.

Block 4 — technique: RNA Bind-n-Seq; molecule type: RNA; matrix: in vitro; tested at: 365 nM; reference: no-protein control; reading: higher = stronger binding
Target: RNA binding protein fox-1 homolog 2, RRM domain, GST-SBP tag (RBFOX2, Homo sapiens, UniProt O43251-10, residues 100-194)
Setting: natural RNA segment, single round, ends assumed
Construct (chain): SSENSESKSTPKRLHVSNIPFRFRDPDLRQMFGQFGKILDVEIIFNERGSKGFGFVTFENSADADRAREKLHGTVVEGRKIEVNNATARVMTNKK
`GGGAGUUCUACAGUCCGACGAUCCUGUAAGGUUUCAAAAGCACUGGUAGGCAUAGCAUAGAUGUUCCAGUUACACACUCAGUAAACACUGGUUAUCAGUCAUUGGAAAGGUUACCUGUGCAACCACCAGAUUCUGGAAUUCUCGGGUGCCAA` — result for “RBNS enrichment (R)”: 0.261.
For `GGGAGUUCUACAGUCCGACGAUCAAAACCAGUAACAAACACAAAGGAAUUCAGGGUCGCUUUGCUUGCUCUCUGUGCUCCGUGGAGGCCUCCGUGUGCCCUCGUUGCCGUGGGGACCCAGCUCCAUGCACGUCUGGAAUUCUCGGGUGCCAA`, “RBNS enrichment (R)” read 2.08.
For `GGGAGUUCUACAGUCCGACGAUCGGUUCACCCCGCCCAAGGGACCUGCCCCCAUUCCUGUGGCCCUGGGGCCCAGCUUCCAAUAGUGUCAGAAGCAACUUGUGGCUUUGCCUUGGUUGUGAGAUGGGUACAUUUGGAAUUCUCGGGUGCCAA`, “RBNS enrichment (R)” read 0.22.
For `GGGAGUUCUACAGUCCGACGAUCUUAUAUACUUCCUCCGGGUCUCUAGGAACUCAGACUUUUUUAAACAUAGAUGUAAAUAAGGAACAGUUUGUCACACCUGACCCCAGUGAGUGGGGGGAAGGGCAGCUGUUUGGAAUUCUCGGGUGCCAA`, “RBNS enrichment (R)” read 0.678.
For `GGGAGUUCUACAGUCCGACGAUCAGAAAUGCCAGAAAUAAAUUAAUUGCAUCUUAGUCUAAAUUUAAGUCCUUUGCCAUGAGGAAAAAGUGGUUUUUUGCUUCAUAUGGUAAAUCUAUAUUAUUCAUAUUGAAUGGAAUUCUCGGGUGCCAA`, “RBNS enrichment (R)” read 1.53.
`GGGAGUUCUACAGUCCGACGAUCCGUGCACUUCCACUGCUCGGGCGCGCCUGUGGCCCCGCUGCAGUGAAGAGCUGCGCCCUGGUUUCGCCGGACAGAGUUGGUGUUUGGAGCCCGACUGCCCUCGGGCACACUGGAAUUCUCGGGUGCCAA`: “RBNS enrichment (R)” 0.722.
Under “RBNS enrichment (R)”, `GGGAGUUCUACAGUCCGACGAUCGUAUAGAUUGUGCAUUUAAAGCUGUUACCAAGUUGUCAGAACCCUAAGAAUGAAAACAGGUCAUAUGUAAUAUUUUGUUUGUAAGUAUCCUUUGUAUCAUAGCAAAGGAAUGGAAUUCUCGGGUGCCAA` is recorded as 1.09.
Under “RBNS enrichment (R)”, `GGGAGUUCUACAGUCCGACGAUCAGGAUCACAGAGUUCAGGGGGAAAAUGUGACAGCACACGCACAAACGCCUUCACUGGAUCAGCCGCUGGAACUGAGGGAGUGAGCUUGGGGACUUCCUUCGUCAGCACUGUGGAAUUCUCGGGUGCCAA` is recorded as 2.92.
Under “RBNS enrichment (R)”, `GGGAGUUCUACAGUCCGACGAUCUGAAUGCUGGGCCCCUGCUCAAGUCUACCCUGAUCACCUCAGGGCAUAAAGCAUGUUUCAUUCUCUGGCCCGACAGUGUCUUUGCUCAGGGAGGGGAAGUGGAAGGGAAGUGGAAUUCUCGGGUGCCAA` is recorded as 1.73.
For `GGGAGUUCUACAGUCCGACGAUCGAGAAGUCUGGUUAACAUCCAUCAGCAGAAUGAGUUAAAACACACAAUGAAUUCAAUCUAUCAGGAUGUUCAUUUUUGGUAGGGAAUGGUUAAAAGAAAAGAACAAUAAGUGGAAUUCUCGGGUGCCAA`, “RBNS enrichment (R)” read 0.584.
`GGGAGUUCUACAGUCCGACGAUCAAAAACAAUCCUGGGUACGUAUGUUGGCUGGAAAACCACAAUGGACCCUGCCACUGCUUCUUGCCCUGAGGUUUGGAAGCUGAGAGUUAUAGAAGCCAAUUCACCAGGAGUGGAAUUCUCGGGUGCCAA`: “RBNS enrichment (R)” 0.296.
For `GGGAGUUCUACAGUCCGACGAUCUCCCUUAGCCCCAGUCCCACAGAUCAGGUGGAGACUGGAGUGACAGAGGGCGACUGUACCAAGGCCACACCAGCUGACCAGCACACCUCUAUCCUUUUGAGCUCUUCUGUUGGAAUUCUCGGGUGCCAA`, “RBNS enrichment (R)” read 0.247.

Excerpt of the above (block 1):
With `TAAAGCGA` the E-score was 0.0848.
The E-score of `CGAGATCC` is reported as 0.107.
The E-score of `CATGTATC` is reported as -0.186.
With `AAATACAG` the E-score was -0.0423.
The E-score of `CTCACGAC` is reported as -0.122.
For `GACGGTGC`, the E-score was 0.0369.
